Measured values gathered from unrelated publications.
Each line is one published result; not all experiments were run side by side. Values joined by “and” are separate records of one study, mostly repeats; a detail may differ. Numbers after ± are the reported error. ≈ marks a conversion by molar mass, not a printed value.
UniProt P27487, sequence (whole entry, looked up): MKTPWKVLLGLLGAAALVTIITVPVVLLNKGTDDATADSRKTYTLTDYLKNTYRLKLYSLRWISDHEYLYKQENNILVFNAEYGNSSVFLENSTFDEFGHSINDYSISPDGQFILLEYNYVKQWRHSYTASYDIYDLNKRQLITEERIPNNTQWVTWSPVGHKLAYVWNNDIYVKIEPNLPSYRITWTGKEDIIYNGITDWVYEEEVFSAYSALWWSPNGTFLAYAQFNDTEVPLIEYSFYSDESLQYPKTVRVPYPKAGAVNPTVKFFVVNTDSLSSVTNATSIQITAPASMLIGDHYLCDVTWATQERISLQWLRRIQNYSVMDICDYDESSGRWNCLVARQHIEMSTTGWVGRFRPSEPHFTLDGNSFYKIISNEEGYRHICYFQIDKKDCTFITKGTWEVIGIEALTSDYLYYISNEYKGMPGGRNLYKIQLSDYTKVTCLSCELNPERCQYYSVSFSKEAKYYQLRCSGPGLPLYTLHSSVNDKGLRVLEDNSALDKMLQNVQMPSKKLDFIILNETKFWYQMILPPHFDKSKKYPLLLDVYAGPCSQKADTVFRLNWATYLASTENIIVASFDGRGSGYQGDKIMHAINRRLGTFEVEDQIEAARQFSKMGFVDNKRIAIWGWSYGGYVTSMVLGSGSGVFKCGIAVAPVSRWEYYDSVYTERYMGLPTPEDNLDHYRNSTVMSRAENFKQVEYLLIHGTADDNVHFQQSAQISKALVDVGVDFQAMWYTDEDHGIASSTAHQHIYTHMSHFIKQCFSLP
UniProt Q16543, sequence (whole entry, looked up): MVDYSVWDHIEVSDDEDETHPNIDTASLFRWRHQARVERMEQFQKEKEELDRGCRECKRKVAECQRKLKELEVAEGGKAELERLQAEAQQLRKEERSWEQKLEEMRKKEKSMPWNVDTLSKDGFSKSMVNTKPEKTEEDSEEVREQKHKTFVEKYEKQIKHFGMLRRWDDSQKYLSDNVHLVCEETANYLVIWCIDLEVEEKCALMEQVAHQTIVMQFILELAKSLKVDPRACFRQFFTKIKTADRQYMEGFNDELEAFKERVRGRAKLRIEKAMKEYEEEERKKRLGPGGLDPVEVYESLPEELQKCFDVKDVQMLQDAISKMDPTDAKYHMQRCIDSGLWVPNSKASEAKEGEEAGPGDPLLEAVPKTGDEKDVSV
UniProt P55212, sequence (whole entry, looked up): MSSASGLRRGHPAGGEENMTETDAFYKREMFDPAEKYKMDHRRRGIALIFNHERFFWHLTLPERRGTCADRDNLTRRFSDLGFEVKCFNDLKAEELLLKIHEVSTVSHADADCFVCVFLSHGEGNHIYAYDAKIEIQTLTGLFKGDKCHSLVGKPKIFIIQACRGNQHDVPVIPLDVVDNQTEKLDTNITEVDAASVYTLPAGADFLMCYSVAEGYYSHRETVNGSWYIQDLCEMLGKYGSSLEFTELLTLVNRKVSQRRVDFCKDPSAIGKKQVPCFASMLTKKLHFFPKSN

For `COc1cc(Nc2ncc(F)c(Nc3ccc4c(n3)NC(=O)C(C)(C)O4)n2)cc(OC)c1OC`, the IC50 was over 10 µM (Caspase-6 (CASP6, Homo sapiens, UniProt P55212)).
`CC(=O)Nc1cc([As](=O)(O)O)ccc1O` gave an activity score of 3.1 (human iPSC-derived cardiomyocytes; MyBP-C/MYH ratio, plate-normalised SD score; concentration not given, primary screen; direction not given).
For `Cc1ccc2cc3c(ccc4ccccc43)c3c2c1CC3`, “relative colony forming efficiency” read 5 ± 3% (BALB/c 3T3; 15 µM, positive control; relative to: solvent control).
With `CC[C@H](C)[C@H](NC(=O)[C@H](CCCCN)NC(=O)[C@H](CCCCN)NC(=O)[C@@H](NC(=O)[C@@H](NC(=O)[C@H](CC(=O)O)NC(=O)[C@H](Cc1ccccc1)NC(=O)[C@H](CC(C)C)NC(=O)CN)[C@@H](C)CC)[C@@H](C)CC)C(=O)N[C@@H](C)C(=O)N[C@@H](CCC(=O)O)C(=O)N[C@@H](CO)C(=O)N[C@@H](Cc1ccccc1)C(=O)N[C@@H](CS)C(N)=O` the EC50 was 98 µM (human red blood cells; pH 7.4; relative to: Triton X-100).
With `COc1c(C)c2c(c(O)c1C/C=C(\C)CCC(=O)O)C(=O)OC2` the IC50 was 1.17 µM (PLC-PRF-5; cell proliferation; liver cancer).
`CC[C@H](C)[C@@H]1NC(=O)[C@@H]2CCCN2C(=O)[C@H](CC(C)C)NC(=O)[C@H](CC(C)C)NC(=O)CNC(=O)[C@@H](NC(=O)[C@@H](NC(=O)[C@H](CC(=O)O)NC(=O)CNC(=O)[C@@H](NC(=O)[C@H](C)NC(=O)CNC(=O)[C@H](CCCCN)NC(=O)[C@H](CC(C)C)NC(=O)[C@H](CC(C)C)NC(=O)[C@H](CCCCN)NC(=O)CNC(=O)[C@@H](NC(=O)[C@@H](N)CC(C)C)C(C)C)C(C)C)C(C)C)CSSC[C@@H](C(=O)O)NC1=O` — result for “log2 fold change”: -1.82 (RNA-seq, item: Clec12a; mouse, traumatic brain injury model, frontal cortex and hippocampus; dose not given; relative to: TBI alone).
`CC1=C(O)C(=O)C=C2C1=CC=C1[C@@]2(C)CC[C@@]2(C)[C@@H]3C[C@](C)(C(=O)O)CC[C@]3(C)CC[C@]12C` gave an activity score of 8.6 (human iPSC-derived cardiomyocytes; MyBP-C/MYH ratio, plate-normalised SD score; concentration not given, primary screen; direction not given).
`CC[C@H](C)[C@H](NC(=O)[C@H](Cc1ccccc1)NC(=O)[C@H](CCC(=O)O)NC(=O)[C@H](CCCNC(=N)N)NC(=O)[C@H](C)NC(=O)[C@H](C)NC(=O)[C@H](CCC(N)=O)NC(=O)[C@H](CCC(=O)O)NC(=O)[C@H](CCC(=O)O)NC(=O)[C@H](CC(C)C)NC(=O)[C@H](Cc1ccc(O)cc1)NC(=O)[C@H](CO)NC(=O)[C@H](CO)NC(=O)[C@@H](NC(=O)[C@H](CC(=O)O)NC(=O)[C@H](CO)NC(=O)[C@@H](NC(=O)[C@H](Cc1ccccc1)NC(=O)[C@@H](NC(=O)CNC(=O)[C@H](CCC(=O)O)NC(=O)[C@H](C)NC(=O)CCc1c[nH]cn1)[C@@H](C)O)[C@@H](C)O)C(C)C)C(=O)N[C@@H](C)C(=O)N[C@@H](Cc1c[nH]c2ccccc12)C(=O)N[C@@H](CC(C)C)C(=O)N[C@H](C(=O)N[C@@H](CCCNC(=N)N)C(=O)NCC(=O)N[C@@H](CCCNC(=N)N)C(=O)N[C@@H](CCCCNC(=O)COCCOCCNC(=O)COCCOCCNC(=O)CC[C@H](NC(=O)CCCCCCCCCCCCCCCCC(=O)O)C(=O)O)C(=O)NCC(=O)NCC(=O)N[C@@H](CO)C(=O)N[C@@H](CCCCNc1c(NCCCCCN(O)C(=O)CCC(=O)NCCCCCN(O)C(=O)CCC(=O)NCCCCCN(O)C(C)=O)c(=O)c1=O)C(=O)O)C(C)C` [zirconium-89 labelled] has a tissue uptake of 1.33 %ID/g (rat, lung; sc, 3 nmol/kg, 24 h, ex vivo).
The viability of `CC(C)[C@H](N)C(=O)N1CCC[C@H]1B(O)O` is reported as 100% and 98% (EA.hy926 CASP1 knockout; CellTiter-Glo; concentration not given).
The LC50 of `COc1c(CCC[P+](c2ccccc2)(c2ccccc2)c2ccccc2)cc2c(c1OC)OCO2.[I-]` is reported as over -4 log M (NCI-H23; SRB).
The relative abundance of `C[C@H]1CN(c2n[nH]c3nc(N[C@H]4CC[C@H](NS(=O)(=O)CCC(F)(F)F)CC4)ncc23)CCO1` is reported as 1.17 (CDC37 (Homo sapiens, UniProt Q16543); inhibitor, Kinobeads competition profiling; 0.8 µM; relative to: vehicle).
`COc1ccc(-c2ccc3ncc4c(c3c2)n([C@@H]2CCN(C)CC2(F)F)c(=O)n4C)cn1` — result for “clonogenic survival after radiation”: “no effect” (U-251; 3 nM, together with: radiation).
For `Cn1nccc1Nc1nccc(-c2cc3c(s2)C(C)(C)N(CCN2CCOCC2)C3=O)n1`, the PI-positive cells was 5 count and 4.5 count and 4.25 count (HCT116; IncuCyte; concentration not given, 16 (unit not given)).
`C=C1CC[C@@H]2[C@](C)(CCC[C@]2(C)C(=O)O)[C@H]1CC/C(C)=C/CO` — result for viability: “decreased” (neuroblastoma M2, MYCN overexpressing; SRB; concentration not given, 48 h, together with: doxycycline).
For `C[C@@H](O)[C@@H](CO)NC(=O)[C@@H](CCCNC(=N)N)NC(=O)[C@@H]1CCCN1C(=O)[C@@H]1CSSC[C@H](NC(=O)[C@H](Cc2ccccc2)NC(=O)CN2CCN(CC(=O)O)CCN(CC(=O)O)CCN(CC(=O)O)CC2)C(=O)N[C@@H](Cc2ccc(O)cc2)C(=O)N[C@@H](Cc2ccccc2)C(=O)N[C@@H](CCC(N)=O)C(=O)N[C@@H](CC(N)=O)C(=O)N1` [gallium-68 labelled], the tissue uptake was 0.2 %ID/g (Wistar rat, healthy, sublingual gland; intravenous, 8 MBq, 120 min, mean).
`CC[C@@]1(O)C(=O)OCc2c1cc1n(c2=O)Cc2cc3ccccc3nc2-1` gave an inhibition of 94.3% (BT-16; cell viability, MTT; 10 µM, 72 h).
`O=C(c1ccc(Cl)cc1)N1CCN2C(=O)N(OC(=O)N3CCOc4ccccc43)C(=O)C2C1` (stereo not drawn) gave a median ratio of 1.09 (DPP4 (Homo sapiens, UniProt P27487); enzyme activity, inhibitor, MS-based ABPP; SW-620 in situ; 10 µM, 2 h, 37 °C; relative to: compound over DMSO, lower = stronger inhibition).
For `COCCCn1c(N)c(C(=O)NC2CCCC2)c2nc3ccccc3nc21`, the viability was 128% (HBL-1; 0.1 µM, 120 h).
For `Nc1ncc(-c2nc(N3CCOCC3)nc(N3CCOCC3)n2)c(C(F)F)n1`, the GI50 was 0.728 µM (DLD-1; 72 h).
`CC[C@H](C)[C@H](NC(=O)[C@H](C)NC(=O)[C@H](CCCCN)NC(=O)[C@H](CC(C)C)NC(=O)[C@H](C)NC(=O)[C@@H](NC(=O)[C@H](Cc1c[nH]cn1)NC(=O)[C@H](CC(C)C)NC(=O)[C@@H](NC(=O)[C@@H](NC(=O)[C@H](CCCCN)NC(=O)[C@H](C)NC(=O)[C@H](C)NC(=O)[C@H](CO)NC(=O)[C@H](CCCCN)NC(=O)[C@H](Cc1ccccc1)NC(=O)[C@@H](NC(=O)[C@H](CCCCN)NC(=O)[C@H](CC(C)C)NC(=O)[C@H](Cc1ccccc1)NC(=O)[C@H](CO)NC(=O)[C@H](CCCCN)NC(=O)[C@H](Cc1c[nH]c2ccccc12)NC(=O)[C@H](CCCCN)NC(C)=O)[C@@H](C)O)[C@@H](C)O)C(C)C)[C@@H](C)O)C(=O)N[C@@H](CO)C(=O)N[C@@H](CO)C(N)=O` gave an MBC90 of 64 µg/mL (≈ 21.8 µM) (Klebsiella pneumoniae; 80 strains).
The GI50 of `CC(C)N1CCC(NC2CCN(c3cccc(-c4cc5cc(F)ccc5[nH]4)c3)CC2)CC1` is reported as 1.67 µM (UO-31).
Under “G2 phase cells”, `O=S(=O)(c1ccc(O)cc1)c1ccc(O)cc1` is recorded as 19.9 ± 3.82% (HepG2 spheroids; Hoechst flow cytometry; 40 µM, 24 h).
For `COc1cc(CCC[P+](c2ccccc2)(c2ccccc2)c2ccccc2)c(OC)c2c1OCO2.[I-]`, the TGI was -4.88 log M (HCC 2998; SRB).
Under “grade 3 Hyperuricemia”, `COc1cc2c(Oc3ccc4[nH]c(C)cc4c3F)ccnc2cc1OCC1(N)CC1` is recorded as 0% (paediatric recurrent refractory sarcoma; 8 mg/kg).

A few entries again:
For `C[C@@H](O)[C@@H](CO)NC(=O)[C@@H](CCCNC(=N)N)NC(=O)[C@@H]1CCCN1C(=O)[C@@H]1CSSC[C@H](NC(=O)[C@H](Cc2ccccc2)NC(=O)CN2CCN(CC(=O)O)CCN(CC(=O)O)CCN(CC(=O)O)CC2)C(=O)N[C@@H](Cc2ccc(O)cc2)C(=O)N[C@@H](Cc2ccccc2)C(=O)N[C@@H](CCC(N)=O)C(=O)N[C@@H](CC(N)=O)C(=O)N1` [gallium-68 labelled], the tissue uptake was 0.2 %ID/g (Wistar rat, healthy, sublingual gland; intravenous, 8 MBq, 120 min, mean).
`CC[C@@]1(O)C(=O)OCc2c1cc1n(c2=O)Cc2cc3ccccc3nc2-1` gave an inhibition of 94.3% (BT-16; cell viability, MTT; 10 µM, 72 h).
`O=C(c1ccc(Cl)cc1)N1CCN2C(=O)N(OC(=O)N3CCOc4ccccc43)C(=O)C2C1` (stereo not drawn) gave a median ratio of 1.09 (DPP4 (Homo sapiens, UniProt P27487); enzyme activity, inhibitor, MS-based ABPP; SW-620 in situ; 10 µM, 2 h, 37 °C; relative to: compound over DMSO, lower = stronger inhibition).
